# Measured values collected from several papers.
# Protocols differ between the studies behind these lines. Numbers after ± are the reported error. Bridge positions count the residues as written; N and C are the ends. Square brackets hold non-standard residues; d marks the D form. Where no end group is shown, it is not given here. Ends that are not written are not given here. [ ]: non-standard residue; d: D form.
# T1: NR1I2/RXRA (Homo sapiens); chain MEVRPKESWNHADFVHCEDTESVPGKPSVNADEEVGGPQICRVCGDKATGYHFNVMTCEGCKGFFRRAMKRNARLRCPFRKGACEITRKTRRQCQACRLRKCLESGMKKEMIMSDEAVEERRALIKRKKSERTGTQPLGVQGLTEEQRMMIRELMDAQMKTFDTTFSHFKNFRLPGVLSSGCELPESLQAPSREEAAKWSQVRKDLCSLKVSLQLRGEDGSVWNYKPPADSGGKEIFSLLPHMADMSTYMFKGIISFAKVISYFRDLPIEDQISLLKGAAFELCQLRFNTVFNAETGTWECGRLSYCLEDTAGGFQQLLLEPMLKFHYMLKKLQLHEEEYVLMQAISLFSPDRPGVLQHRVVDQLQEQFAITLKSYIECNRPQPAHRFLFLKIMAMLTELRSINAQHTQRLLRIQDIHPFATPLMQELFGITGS; chain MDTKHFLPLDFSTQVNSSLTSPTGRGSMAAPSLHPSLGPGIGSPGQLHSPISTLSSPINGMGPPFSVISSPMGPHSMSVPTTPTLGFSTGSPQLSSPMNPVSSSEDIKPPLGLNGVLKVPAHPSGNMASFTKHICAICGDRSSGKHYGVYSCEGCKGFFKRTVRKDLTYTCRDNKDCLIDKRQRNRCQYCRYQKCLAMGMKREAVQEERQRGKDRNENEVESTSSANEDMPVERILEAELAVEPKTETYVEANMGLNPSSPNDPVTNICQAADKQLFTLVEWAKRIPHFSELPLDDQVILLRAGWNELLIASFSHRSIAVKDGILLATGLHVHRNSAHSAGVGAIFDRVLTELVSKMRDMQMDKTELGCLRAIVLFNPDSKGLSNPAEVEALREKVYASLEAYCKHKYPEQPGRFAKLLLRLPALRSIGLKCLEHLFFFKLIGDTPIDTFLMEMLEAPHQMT
# B1: BRCA1 452-1079 (Homo sapiens, UniProt P38398); sequence looked up; chain VESNIEDKIFGKTYRKKASLPNLSHVTENLIIGAFVTEPQIIQERPLTNKLKRKRRPTSGLHPEDFIKKADLAVQKTPEMINQGTNQTEQNGQVMNITNSGHENKTKGDSIQNEKNPNPIESLEKESAFKTKAEPISSSISNMELELNIHNSKAPKKNRLRRKSSTRHIHALELVVSRNLSPPNCTELQIDSCSSSEEIKKKKYNQMPVRHSRNLQLMEGKEPATGAKKSNKPNEQTSKRHDSDTFPELKLTNAPGSFTKCSNTSELKEFVNPSLPREEKEEKLETVKVSNNAEDPKDLMLSGERVLQTERSVESSSISLVPGTDYGTQESISLLEVSTLGKAKTEPNKCVSQCAAFENPKGLIHGCSKDNRNDTEGFKYPLGHEVNHSRETSIEMEESELDAQYLQNTFKVSKRQSFAPFSNPGNAEEECATFSAHSGSLKKQSPKVTFECEQKEENQGKNESNIKPVQTVNITAGFPVVGQKDKPVDNAKCSIKGGSRFCLSSQFRGNETGLITPNKHGLLQNPYRIPPLFPIKSFVKTKCKKNLLEENFEEHSMSPEREMGNENIPSTVSTISRNNIRENVFKEASSSNINEVGSSTNEVGSSINEIGSSDENIQAELGRNRGPK
# B2: HDAC6 (Homo sapiens, UniProt Q9UBN7); sequence looked up; chain MTSTGQDSTTTRQRRSRQNPQSPPQDSSVTSKRNIKKGAVPRSIPNLAEVKKKGKMKKLGQAMEEDLIVGLQGMDLNLEAEALAGTGLVLDEQLNEFHCLWDDSFPEGPERLHAIKEQLIQEGLLDRCVSFQARFAEKEELMLVHSLEYIDLMETTQYMNEGELRVLADTYDSVYLHPNSYSCACLASGSVLRLVDAVLGAEIRNGMAIIRPPGHHAQHSLMDGYCMFNHVAVAARYAQQKHRIRRVLIVDWDVHHGQGTQFTFDQDPSVLYFSIHRYEQGRFWPHLKASNWSTTGFGQGQGYTINVPWNQVGMRDADYIAAFLHVLLPVALEFQPQLVLVAAGFDALQGDPKGEMAATPAGFAQLTHLLMGLAGGKLILSLEGGYNLRALAEGVSASLHTLLGDPCPMLESPGAPCRSAQASVSCALEALEPFWEVLVRSTETVERDNMEEDNVEESEEEGPWEPPVLPILTWPVLQSRTGLVYDQNMMNHCNLWDSHHPEVPQRILRIMCRLEELGLAGRCLTLTPRPATEAELLTCHSAEYVGHLRATEKMKTRELHRESSNFDSIYICPSTFACAQLATGAACRLVEAVLSGEVLNGAAVVRPPGHHAEQDAACGFCFFNSVAVAARHAQTISGHALRILIVDWDVHHGNGTQHMFEDDPSVLYVSLHRYDHGTFFPMGDEGASSQIGRAAGTGFTVNVAWNGPRMGDADYLAAWHRLVLPIAYEFNPELVLVSAGFDAARGDPLGGCQVSPEGYAHLTHLLMGLASGRIILILEGGYNLTSISESMAACTRSLLGDPPPLLTLPRPPLSGALASITETIQVHRRYWRSLRVMKVEDREGPSSSKLVTKKAPQPAKPRLAERMTTREKKVLEAGMGKVTSASFGEESTPGQTNSETAVVALTQDQPSEAATGGATLAQTISEAAIGGAMLGQTTSEEAVGGATPDQTTSEETVGGAILDQTTSEDAVGGATLGQTTSEEAVGGATLAQTTSEAAMEGATLDQTTSEEAPGGTELIQTPLASSTDHQTPPTSPVQGTTPQISPSTLIGSLRTLELGSESQGASESQAPGEENLLGEAAGGQDMADSMLMQGSRGLTDQAIFYAVTPLPWCPHLVAVCPIPAAGLDVTQPCGDCGTIQENWVCLSCYQVYCGRYINGHMLQHHGNSGHPLVLSYIDLSAWCYYCQAYVHHQALLDVKNIAHQNKFGEDMPHPH
# B3: ADRM1 285-407 (Homo sapiens, UniProt Q16186); chain GSWTQVDLASVLTPEIMAPILANADVQERLLPYLPSGESLPQTADEIQNTLTSPQFQQALGMFSAALASGQLGPLMCQFGLPAEAVEAANKGDVEAFAKAMQNNAKPEQKEGDTKDKKDEEEDMSLD
# B4: UGT1A9 (Homo sapiens, UniProt O60656); chain GKLLVVPMDGSHWFTMRSVVEKLILRGHEVVVVMPEVSWQLGRSLNCTVKTYSTSYTLEDLDREFKAFAHAQWKAQVRSIYSLLMGSYNDIFDLFFSNCRSLFKDKKLVEYLKESSFDAVFLDPFDNCGLIVAKYFSLPSVVFARGILCHYLEEGAQCPAPLSYVPRILLGFSDAMTFKERVRNHIMHLEEHLLCHRFFKNALEIASEILQTPVTEYDLYSHTSIWLLRTDFVLDYPKPVMPNMIFIGGINCHQGKPLPMEFEAYINASGEHGIVVFSLGSMVSEIPEKKAMAIADALGKIPQTVLWRYTGTRPSNLANNTILVKWLPQNDLLGHPMTRAFITHAGSHGVYESICNGVPMVMMPLFGDQMDNAKRMETKGAGVTLNVLEMTSEDLENALKAVINDKSYKENIMRLSSLHKDRPVEPLDLAVFWVEFVMRHKGAPHLRPAAHDLTWYQYHSLDVIGFLLAVVLTVAFITFKCCAYGYRKCLGKKGRVKKAHKSKTH
# B5: Scn2a 1080-1203 (UniProt P04775); CK2-phosphorylated; sequence looked up; chain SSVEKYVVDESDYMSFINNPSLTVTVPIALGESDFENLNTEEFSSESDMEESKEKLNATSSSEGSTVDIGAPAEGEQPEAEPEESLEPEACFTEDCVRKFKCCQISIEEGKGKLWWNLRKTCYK
Molecule,target or system,assay,system,conditions,how to read,endpoint,value
B1 (BRCA1 452-1079),"WRN (Homo sapiens, UniProt Q14191)","helicase activity, activator",,,higher = more unwinding,helicase activity,5 fold
TIMP2 N-terminal domain S4E/N38Q/V71N/H97R/T99S,"MMP10 99-263 (Homo sapiens, UniProt P09238)","fluorogenic substrate cleavage, inhibitor, enzyme inhibition assay",,apparent,,Ki,78.9 nM
GCTGAATGAACTTGCTGACCCTCTGCT (dsDNA),"T1, NR1I2/RXRA (Homo sapiens)",fluorescence anisotropy competition,"double-stranded DNA, one strand shown",together with: DR3 FAM,,Ki,98 ± 4.9 nM
QKRAA (also: backbone cyclization with non-peptidic ring/spacer; cyclic),"Calreticulin (Calr, Mus musculus, UniProt P14211)","binding, surface plasmon resonance",,"pH 7.4, 25 °C",,Kd,510 ± 2e-06 nM
"FGF14 fragment, N-terminal adamantanecarbonyl, Glu tert-butyl ester, C-terminal ethyl ester (Homo sapiens)","SCN8A 1767-1912 (Homo sapiens, UniProt Q9UQD0-1)",SPR,,,,kon,2640 M⁻¹ s⁻¹
B2 (HDAC6),"PPP1R12A (Homo sapiens, UniProt O14974)","MYPT1 coimmunoprecipitated with MLC, competitor, co-IP",HFF lysate,,"relative to: control, higher = more MYPT1 pulled down",relative binding,0.87
alteplase,"Fgg/Fga/Fgb, fibrin form (Rattus norvegicus, UniProt P02680+P06399+P14480)",PET-CT,"rat embolic stroke thrombosis model, ICA-MCA","intravenous, 10 mg/kg, together with: tracer FBP7",,ipsilateral to contralateral activity ratio,1.08 ± 0.11
ATGGVKKPHR (dimethyl-Lys36),"TP53-binding protein 1, tandem tudor domain (Homo sapiens, UniProt Q12888)",tryptophan fluorescence,,tandem Tudor domain,,Kd,1500 nM
"H[dS]QGTFTSDYSKYLDS[dC]RAQDFVCWLMNTKRNRNNIA-NH2 (oxyntomodulin analog R17C/Q24C, Bph cross-link, D-Cys17; linker 17-24 via Bph; reading uncertain; Bph cross-link, D-Cys17; Bph = not defined here)","GCGR (Homo sapiens, UniProt P47871)","CRE luciferase reporter, agonist","peptide, HEK293",,,EC50,3 nM
V[dA]IA (D-Ala2),PC-12,"protection from Aβ1–42 toxicity, MTT",,"concentration not given, 6 h, Aβ to peptide ratio 1:5, together with: Aβ1–42 2 µM",relative to: untreated cells,cell viability,70%
human LCAT,"Phosphatidylcholine-sterol acyltransferase (Homo sapiens, UniProt P04180)",enzyme,human plasma,"10 µg/mL, together with: HDL-mimetic substrate",,specific activity,7 nmol/µg/h
B3 (ADRM1 285-407),UCHL5 M148A/F149A (Homo sapiens),steady-state kinetics,,,,kcat/Km,220000 M⁻¹ s⁻¹
[dP]VIA (D-Pro1),PC-12,"protection from Aβ1–42 toxicity, MTT",,"concentration not given, 6 h, Aβ to peptide ratio 1:10, together with: Aβ1–42 2 µM",relative to: untreated cells,cell viability,71.2%
B4 (UGT1A9),O=c1cc(-c2cccc(O)c2)oc2cc(O)ccc12,steady-state kinetics,,"pH 7.4, 37 °C",,Vmax,0.0162 µmol/min/mg
"Ac-DNCQYVYNV-NH2 (N-acetyl, C-amide)",mouse cathepsin G,inhibitor,"peptide, wild type neutrophil lysate","2.5 mM, 30 min preincubation, pH 8.0, 37 °C, together with: N-Suc-AAPF-pNA 1 mM",,inhibition,86%
MGRRFLVTVRIQRAGRPLQERVFLVKFVRSRRPRTAS (mouse p19Arf residues 1–37; sequence looked up),"E3 ubiquitin-protein ligase Mdm2, p53-binding domain (MDM2, Homo sapiens, UniProt Q00987)",circular dichroism,peptide,,,Kd,≤ 10000 nM
B5 (Scn2a 1080-1203),"ANK2 1-957 (Homo sapiens, UniProt Q01484-2)",SPR,,"pH 7.4, 25 °C, NaCl 150 mM",,koff,0.003 s⁻¹

# Excerpt of the above:
Molecule,target or system,assay,system,conditions,how to read,endpoint,value
B1 (BRCA1 452-1079),"WRN (Homo sapiens, UniProt Q14191)","helicase activity, activator",,,higher = more unwinding,helicase activity,5 fold
